Measured values of several laboratories.
Lines come from different studies, so protocols differ. ± gives the spread as reported.

With `CN1C(=O)CC(=O)N(c2ccccc2)c2cc(Cl)ccc21` the half-life was 1.25 h (Sprague Dawley rat, brain; intraperitoneal, 37 mg/kg).
With `NC1(c2ccccc2Cl)CCCCC1=O` (racemic) the half-life was 4.4 ± 5.5 h (male Wistar rats, plasma; intraperitoneal, 40 mg/kg once daily for 14 days, day 14).
For `CCCC(=O)OCSc1ccccc1C(=O)NCCC(N)=O`, the half-life was 0.4 ± 0.2 h (Sprague-Dawley rat, male, plasma; intravenous, 50 mg/kg).
The half-life ratio of `Nc1ncn([C@@H]2O[C@H](CO)[C@@H](O)[C@H]2O)c(=O)n1` is reported as 13 fold (male Rowett nude rat, lung tissue; inhaled vs intraperitoneal, 0.6 vs 2 mg/kg; relative to: aerosol over intraperitoneal).
For `C[C@H]1CNCCc2ccc(Cl)cc21`, the half-life was 1.74 ± 0.11 h (male Sprague-Dawley rat, plasma; subcutaneous, pimavanserin 0.5 + lorcaserin 0.5 mg/kg, pimavanserin 15 min earlier).
The half-life of `COc1cc2c3c(c4cc(OC)c(OC)cc4c2cc1OC)CN1CCC[C@@H]1C3` is reported as 30.7 h (Sprague-Dawley rats, male; oral, dose not given).
With `CN1CC[C@@]23CCCC[C@@H]2[C@@H]1Cc1ccc(O)cc13` the half-life was 8.25 ± 3.45 h (Wistar rat, both sexes, plasma; oral, 5 mg/kg DEM, DEM 2 h after pretreatment, added: TCE 100 mg/kg single pretreatment).
With `CNC1(c2ccccc2Cl)CCCCC1=O` (racemic) the half-life was 10.2 ± 5.2 h (male Wistar rats, plasma; intraperitoneal, 40 mg/kg single dose).

For quick reference, copied from above:
The half-life of `COc1cc2c3c(c4cc(OC)c(OC)cc4c2cc1OC)CN1CCC[C@@H]1C3` is reported as 30.7 h (Sprague-Dawley rats, male; oral, dose not given).
